# Results from different studies.
# Each line is one published result; not all experiments were run side by side.
Structure (SMILES),target or system,test,test system,setting,endpoint,result
CN[C@H](CC(C)C)C(=O)N[C@H]1C(=O)N[C@@H](CC(N)=O)C(=O)N[C@H]2C(=O)N[C@H]3C(=O)N[C@H](C(=O)N[C@H](C(=O)O)c4cc(O)cc(O)c4-c4cc3ccc4O)[C@H](O)c3ccc(c(Cl)c3)Oc3cc2cc(c3O[C@@H]2O[C@H](CO)[C@@H](O)[C@H](O)[C@H]2O[C@H]2C[C@](C)(N)[C@H](O)[C@H](C)O2)Oc2ccc(cc2Cl)[C@H]1O,Kocuria sp.,broth microdilution,"sugar glider pouch or skin isolate, cation-adjusted Mueller-Hinton broth","16 h, 37 °C, above 90% inhibition",MIC,1 µg/mL
O=C(/C=C/N1C[C@H]2C[C@@H]1CN2c1ccccn1)c1ccccc1O,HBL-1,,,"0.1 µM, 120 h",viability,47.1%
CCCCCCCCCC(=O)N[C@@H](Cc1c[nH]c2ccccc12)C(=O)N[C@H](CC(N)=O)C(=O)N[C@@H](CC(=O)O)C(=O)N[C@@H]1C(=O)NCC(=O)N[C@@H](CCCN)C(=O)N[C@@H](CC(=O)O)C(=O)N[C@H](C)C(=O)N[C@@H](CC(=O)O)C(=O)NCC(=O)N[C@H](CO)C(=O)N[C@@H]([C@H](C)CC(=O)O)C(=O)N[C@@H](CC(=O)c2ccccc2N)C(=O)O[C@@H]1C,Staphylococcus simulans,broth microdilution,"22, Mueller-Hinton broth, Mg2+ 10 mg/L","16 h, 30 °C, with: Ca2+ 10 mM",MIC,0.031 µg/mL
CC1(C)S[C@@H]2[C@H](NC(=O)[C@H](N)c3ccccc3)C(=O)N2[C@H]1C(=O)O,Pseudomonas aeruginosa,,clinical isolate RKI-No_253/15,,MIC,> 16 µg/mL
Cc1ccc(CCC(=O)Nc2nnc(S(N)(=O)=O)s2)cc1,Enterococcus hirae,,ATCC 10541,,MIC,3.06 µM
CC(C)(CN)CNCc1nc2ccccc2n1CCOc1ccccc1,Streptococcus pneumoniae,,ATCC 49619,,MIC,8 µg/mL
N=C(N)c1ccc(OCc2cc(COc3ccc(C(=N)N)cc3)cc(-c3ccccc3)c2)cc1,Escherichia coli,,BW25113,"in combination, lowest-FICI combination, with: vancomycin",MIC,25 µg/mL
c1ccc(OCCn2c(CNCC34CC5CC(CC(C5)C3)C4)nc3ccccc32)cc1,Streptococcus pneumoniae,,ATCC 49619,,MIC,4 µg/mL
Oc1cc(O)c2cc(O)c(-c3cc(O)c(O)c(O)c3)[o+]c2c1,HBL-1,,,"0.1 µM, 120 h",viability,134%
CC(C)C[C@@H]1NC(=O)[C@@H](Cc2ccccc2)NC(=O)[C@H](CCN)NC(=O)[C@@H](NC(=O)[C@H](CCN)NC(=O)[C@@H](N)[C@@H](C)O)CCNC(=O)[C@H]([C@@H](C)O)NC(=O)[C@H](CCN)NC(=O)[C@H](CCN)NC1=O,Escherichia coli,,BW25113,,MIC,> 200 µg/mL
FC(F)(F)Oc1ccc(OCCn2c(CNCC34CC5CC(CC(C5)C3)C4)nc3ccccc32)cc1,Streptococcus pneumoniae,,ATCC 49619,,MIC,8 µg/mL
NC[C@H]1O[C@H](O[C@H]2[C@H](O)[C@@H](O[C@H]3O[C@H](CO)[C@@H](O)[C@H](N)[C@H]3O)[C@H](N)C[C@@H]2N)[C@H](O)[C@@H](O)[C@@H]1O,Kocuria sp.,broth microdilution,,,MIC,27.5 µM
CC[C@H](C)CCCCC(=O)N[C@@H](CCN)C(=O)N[C@H](C(=O)N[C@@H](CCN)C(=O)N[C@H]1CCNC(=O)[C@H]([C@@H](C)O)NC(=O)[C@H](CCN)NC(=O)[C@H](CCN)NC(=O)[C@H](CC(C)C)NC(=O)[C@@H](CC(C)C)NC(=O)[C@H](CCN)NC1=O)[C@@H](C)O,Staphylococcus simulans,broth microdilution,"22, cation-adjusted Mueller-Hinton broth","20 to 24 h, 37 °C, 0.002% polysorbate 80",MIC,4 µg/mL
C[C@@H](O)[C@H]1C(=O)N2C(C(=O)O)=C(S[C@@H]3CN[C@H](C(=O)N(C)C)C3)[C@H](C)[C@H]12,Klebsiella oxytoca,broth microdilution,clinical isolate RKI 609/16,,MIC,16 µg/mL
CN[C@H](CC(C)C)C(=O)N[C@H]1C(=O)N[C@@H](CC(N)=O)C(=O)N[C@H]2C(=O)N[C@H]3C(=O)N[C@H](C(=O)N[C@H](C(=O)O)c4cc(O)cc(O)c4-c4cc3ccc4O)[C@H](O)c3ccc(c(Cl)c3)Oc3cc2cc(c3O[C@@H]2O[C@H](CO)[C@@H](O)[C@H](O)[C@H]2O[C@H]2C[C@](C)(N)[C@H](O)[C@H](C)O2)Oc2ccc(cc2Cl)[C@H]1O,Staphylococcus simulans,broth microdilution,"22, cation-adjusted Mueller-Hinton broth","20 to 24 h, 37 °C, 0.002% polysorbate 80",MIC,0.125 µg/mL
C[C@H]1COc2c(N3CCN(C)CC3)c(F)cc3c(=O)c(C(=O)O)cn1c23,Citrobacter freundii,agar dilution,ATCC 43864 susceptible,,MIC,≤ 0.03 µg/mL
N=C(N)c1ccc(OCCC(CCOc2ccc(C(=N)N)cc2)c2ccccc2)cc1 (stereo not drawn),Escherichia coli,,W3110,"in combination, checkerboard, with: rifampicin",MIC,6.25 µg/mL
CN(C)c1ncc(O)c2c1C[C@H]1C[C@H]3[C@H](N(C)C)C(O)=C(C(N)=O)C(=O)[C@@]3(O)C(O)=C1C2=O.Cl.Cl,Streptococcus pneumoniae,,clinical isolates,,MIC,1 µg/mL
CNC(C)C1CCC(N)C(OC2C(N)CC(N)C(OC3OCC(C)(O)C(NC)C3O)C2O)O1 (stereo not drawn),Pseudomonas aeruginosa,,clinical isolate RKI-No_253/15,,MIC,> 8 µg/mL
Fc1c(F)c(F)c(OCCn2c(CNCC34CC5CC(CC(C5)C3)C4)nc3ccccc32)c(F)c1F,Streptococcus pneumoniae,,ATCC 49619,,MIC,8 µg/mL
CCN1CCN(C(=O)N[C@@H](C(=O)N[C@@H]2C(=O)N3[C@@H]2SC(C)(C)[C@@H]3C(=O)O)c2ccccc2)C(=O)C1=O,Escherichia coli,broth microdilution,ATCC 25922 wild type,no clavulanic acid,MIC,12.5 µg/mL

# Repeated from above:
Structure (SMILES),target or system,test,test system,setting,endpoint,result
CN[C@H](CC(C)C)C(=O)N[C@H]1C(=O)N[C@@H](CC(N)=O)C(=O)N[C@H]2C(=O)N[C@H]3C(=O)N[C@H](C(=O)N[C@H](C(=O)O)c4cc(O)cc(O)c4-c4cc3ccc4O)[C@H](O)c3ccc(c(Cl)c3)Oc3cc2cc(c3O[C@@H]2O[C@H](CO)[C@@H](O)[C@H](O)[C@H]2O[C@H]2C[C@](C)(N)[C@H](O)[C@H](C)O2)Oc2ccc(cc2Cl)[C@H]1O,Kocuria sp.,broth microdilution,"sugar glider pouch or skin isolate, cation-adjusted Mueller-Hinton broth","16 h, 37 °C, above 90% inhibition",MIC,1 µg/mL
O=C(/C=C/N1C[C@H]2C[C@@H]1CN2c1ccccn1)c1ccccc1O,HBL-1,,,"0.1 µM, 120 h",viability,47.1%
